Assay results pooled from the literature.
Compare with care: the assays were run in different laboratories. ± gives the spread as reported.
UniProt P14868, sequence (whole entry, looked up): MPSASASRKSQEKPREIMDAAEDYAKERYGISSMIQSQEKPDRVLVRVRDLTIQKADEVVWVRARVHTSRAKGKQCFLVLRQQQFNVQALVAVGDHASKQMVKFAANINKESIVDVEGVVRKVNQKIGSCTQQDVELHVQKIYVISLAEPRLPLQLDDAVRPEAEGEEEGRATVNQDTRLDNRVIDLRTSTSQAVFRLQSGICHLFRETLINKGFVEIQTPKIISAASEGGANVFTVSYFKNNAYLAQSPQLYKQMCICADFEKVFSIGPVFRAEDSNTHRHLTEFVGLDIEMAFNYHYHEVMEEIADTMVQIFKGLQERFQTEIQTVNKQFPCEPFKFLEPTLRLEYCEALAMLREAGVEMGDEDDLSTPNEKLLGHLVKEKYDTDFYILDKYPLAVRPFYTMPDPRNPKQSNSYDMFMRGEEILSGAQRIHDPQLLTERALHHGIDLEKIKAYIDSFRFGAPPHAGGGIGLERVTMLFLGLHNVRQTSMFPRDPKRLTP

| SMILES | tested on | assay | system | setting | scale | endpoint | result |
| --- | --- | --- | --- | --- | --- | --- | --- |
| C[C@]1(CO)Cc2ncn(-c3ccc(C#N)c(Cl)c3)c2C(=O)O1 | – | refers to: involuntary muscle contractions | human | 20 mg single dose | – | subjects with drug-related TEAE | 14.3% |
| Cc1cc(C)c(CNC(=O)c2cc(Cl)c3c(c2C)O[C@@](C)([C@H]2CC[C@H](N(C)C)CC2)O3)c(=O)[nH]1 | – | – | relapsed/refractory NHL patients | dose not given, treatment-related TEAEs, safety set | – | grade 5 acute myeloid leukaemia incidence | 0% |
| C=CC(=O)N1CC[C@H](n2nc(C#Cc3cc(OC)cc(OC)c3)c3c(N)ncnc32)C1 | – | – | human patients, all | oral, dose not given, QD regimen, adverse drug reaction | – | decreased appetite, any grade | 44.2% |
| COc1cc(N2CCC(N3CCN(C)CC3)CC2)ccc1Nc1ncnc(Nc2ccccc2S(=O)(=O)C(C)C)n1 | – | refers to: Constipation | Japanese patients with solid tumours | oral, dose not given, all grades | – | treatment-emergent adverse events | 6 number (percent) |
| NC(=O)[C@H]1CCN(c2ncnc(N)c2F)C[C@@H]1N1CCC[C@@H](Nc2cc(Cl)cc(C(F)(F)F)c2)C1=O | – | – | B-cell malignancy patients | oral, 82 mg twice daily, dose | – | grade ≥3 neutropenia | 0% |
| CN[C@@H](C)C(=O)N[C@H]1CN(S(=O)(=O)c2cccc(S(=O)(=O)N3CC[C@H]4CC[C@@H](C(=O)NC(c5ccccc5)c5ccccc5)N4C(=O)[C@@H](NC(=O)[C@H](C)NC)C3)c2)CC[C@H]2CC[C@@H](C(=O)NC(c3ccccc3)c3ccccc3)N2C1=O | – | – | patients with advanced solid tumours | 20 mg, phase I monotherapy | – | treatment-related AST elevation incidence | 0% |
| O=S(=O)(Nc1ccccc1)c1ccc(NC(=S)Nc2ccccc2)cc1 | – | – | female mice, thymus | oral, 80 mg/kg daily 14 days | baseline: body weight | relative organ weight | 0.35% |
| C[C@H]1CN(c2n[nH]c3nc(N[C@H]4CC[C@H](NS(=O)(=O)CCC(F)(F)F)CC4)ncc23)CCO1 | DARS1 (Homo sapiens, UniProt P14868) | biochemical | – | – | – | IC50 | ≥ 20 µM |
| CC(=O)c1c(C)c2cnc(Nc3ccc(C4CCN(CCS(C)(=O)=O)CC4)cn3)nc2n(C2CCCC2)c1=O | – | – | HR+/HER2- advanced breast cancer patients | oral, 100 mg bid, grade 3/4, monotherapy arm | – | patients with anaemia | 0% |
| CC(C)[C@@H]1NC(=O)CNC(=O)[C@H](CC(N)=O)NC(=O)[C@H](CCCNC(=N)N)NC(=O)[C@H](Cc2ccc(O)cc2)NC(=O)[C@H](C(C)C)NC(=O)[C@@H](NC(=O)[C@@H](NC(=O)[C@H](CC(N)=O)NC(=O)[C@H](Cc2c[nH]c3ccccc23)NC(=O)[C@H](C)NC(=O)[C@H](Cc2ccccc2)NC(=O)CN)C(C)C)CSSC[C@@H](C(=O)N[C@@H](Cc2cnc[nH]2)C(=O)N[C@@H](CCCNC(=N)N)C(=O)N[C@@H](CCCNC(=N)N)C(=O)N[C@@H](C)C(=O)N[C@@H](CC(N)=O)C(N)=O)NC(=O)[C@H](C(C)C)NC(=O)[C@H](CCCNC(=N)N)NC1=O | – | – | ICR mouse | ip, 10 mg/kg | direction not given | group interaction score | 0 |
| COc1ccc([C@@H]2CC(=O)c3c(O)cc(O)cc3O2)cc1O | – | – | male Sprague-Dawley rat, lean | oral, 100 mg/kg of neohesperidin, 12 to 24 h, after β-glucuronidase/sulfatase hydrolysis | – | urinary excreted amount, total | 4790 ± 1600 ng |
| CO[C@H]1C[C@@H]2CC[C@@H](C)[C@@](O)(O2)C(=O)C(=O)N2CCCC[C@H]2C(=O)O[C@H]([C@H](C)C[C@@H]2CC[C@@H](OC(=O)NCCOCCOCCOCCOCCOCCOCCOCCOCCC(=O)N3CCc4cc(Cn5nc(-c6ccc7oc(N)nc7c6)c6c(N)ncnc65)ccc4C3)[C@H](OC)C2)C[C@@H](O)[C@H](C)/C=C(\C)[C@@H](O)[C@@H](OC)C(=O)[C@H](C)C[C@H](C)/C=C/C=C/C=C/1C | – | – | patients with advanced solid tumours | intravenous, dose not given, grade ≥3 | – | incidence of Constipation TEAE | 0% |
| Oc1c(Cl)cc2c(c1Cl)Oc1cc(Cl)c(Cl)cc1O2 | – | – | cow whole milk | 500 nM | baseline: milk fat over skim milk | milk fat partition ratio | 24.2 |
| O=C(O)CCCOc1ccc(F)cc1-c1cc(-c2ccccc2C(F)(F)F)n(-c2ccccc2)n1 | – | – | male Crl:CD(SD) rats, spleen | intravenous, 25 µg/kg, 14 d | – | relative organ weight | 0.17 ± 0.02 g% |
| CN1CC[C@@H](c2c(O)cc(O)c3c(=O)cc(-c4ccc(C(F)(F)F)cc4Cl)oc23)[C@@H]1CO | – | refers to: grade 3 febrile neutropenia | relapsed or refractory haematologic malignancy patients | oral, dose not given, phase dose escalation, all doses | – | patients with adverse event | 7.5% |
